Measurements from different studies.
Numbered parts are unrelated; each lists some results of a single study.

Study 1
Target: Histone acetyltransferase KAT6A, both winged helices, GST fusion (KAT6A, Homo sapiens, UniProt Q92794, residues 1-181)
Technique: protein binding microarray
Molecule type: double-stranded DNA, one strand shown
Matrix: in vitro
Concentration: not given
Setting: 8-mer, flanks averaged, mean of 2 arrays, mostly near background
Baseline: not given
Direction: higher = stronger binding
Target sequence (chain): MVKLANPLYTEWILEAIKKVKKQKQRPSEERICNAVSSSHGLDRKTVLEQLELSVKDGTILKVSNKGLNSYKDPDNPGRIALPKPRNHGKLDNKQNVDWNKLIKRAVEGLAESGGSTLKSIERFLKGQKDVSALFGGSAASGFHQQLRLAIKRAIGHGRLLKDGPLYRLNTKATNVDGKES
Sequence | E-score
CCACGATA | -0.265
GAATTGTA | -0.019
CCATATGC | 0.00662
CAAATACA | -0.139
CGCAAAGA | 0.0892
CTGTCGGA | 0.0605
AGAGCGTA | 0.15
AGAATGCC | 0.0591
CTGCCAGC | -0.109
CGTTACTA | -0.0673
GGAGCAGA | -0.0563
CGTAGCAC | 0.198
AGTCTACA | -0.137
AACTACAT | -0.202
ACGGCCAA | 0.151
ACTCCCAT | -0.3
AGGCGGCC | 0.206
GAACGGTC | 0.115
GTGACCAA | -0.205
ACATTTCT | -0.0675

Study 2
Target: Ras GTPase-activating protein-binding protein 1, RRM domain (G3BP1, Homo sapiens, UniProt Q13283)
UniProt Q13283, sequence (whole entry, looked up): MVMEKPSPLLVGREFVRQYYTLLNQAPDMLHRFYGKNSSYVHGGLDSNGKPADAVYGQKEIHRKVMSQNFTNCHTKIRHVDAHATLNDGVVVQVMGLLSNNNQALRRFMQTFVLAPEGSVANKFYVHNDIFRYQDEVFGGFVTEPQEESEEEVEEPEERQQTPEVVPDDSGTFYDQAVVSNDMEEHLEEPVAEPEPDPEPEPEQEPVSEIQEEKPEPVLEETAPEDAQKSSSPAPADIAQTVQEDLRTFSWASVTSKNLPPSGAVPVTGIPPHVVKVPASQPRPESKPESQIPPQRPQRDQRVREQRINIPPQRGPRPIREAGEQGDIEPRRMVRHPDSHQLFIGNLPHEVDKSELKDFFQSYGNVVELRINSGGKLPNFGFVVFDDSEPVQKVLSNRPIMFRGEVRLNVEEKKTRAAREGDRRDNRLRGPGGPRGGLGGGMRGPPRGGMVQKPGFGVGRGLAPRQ
Technique: RNA Bind-n-Seq
Molecule type: RNA
Matrix: in vitro
Concentration: 1 µM
Setting: whole 134-nt RNA, ends assumed
Added: 150 mM KCl
Baseline: input library
Direction: higher = stronger binding
All sequences stand within: GGGAGUUCUACAGUCCGACGAUC … UGGAAUUCUCGGGUGUCAAGG
Sequence | log2 enrichment
UCAAGUCCUGUGCUACACAUCGUAUGUACCGAAUCGGUUUGGUUUGGGUUUGGGGAAAGUAUUAUGUUACGCCGUUCGGAUCUGCACUUC | -0.237
CCUGUGCUACACAUCGUAUGUACCGAAUCGGGGAGGGGUUUUUUUGGGGAAAAAAAGGGGAAAGUAUUAUGUUACGCCGUUCGGAUCUGC | 0.364
GUCCUGUGCUACACAUCGUAUGUACCGAAUCGGUUUUUUGGUUUUUUGGUUUUUUGGGAAAGUAUUAUGUUACGCCGUUCGGAUCUGCAC | -0.226
CAAGUCCUGUGCUACACAUCGUAUGUACCGAAUCGGGAAAGGGUUUUUGGGUGGGAAAGUAUUAUGUUACGCCGUUCGGAUCUGCACUUC | 0.675
CCUCAAGUCCUGUGCUACACAUCGUAUGUACCGAAUCGGCCGGGCCGGCCGGAAAGUAUUAUGUUACGCCGUUCGGAUCUGCACUUCCAG | -0.489
CCUGUGCUACACAUCGUAUGUACCGAAUCGGGGUUUUUGGGGUUUUUUUGGGGUUUGGGGAAAGUAUUAUGUUACGCCGUUCGGAUCUGC | 0.797
GUCCUGUGCUACACAUCGUAUGUACCGAAUCGGGAGGGAAAAAAAGGGUUUUUUUGGGAAAGUAUUAUGUUACGCCGUUCGGAUCUGCAC | 0.219
GCAGGAAGUAAAAACAAAUGGAAAUGCUUCGGAUAGUGGCAGGGGUGGGGGUUGCUAAGGAAAGGGUGGGAUGGGUGUGGGUAAAGAGUU | 0.968
CAAGUCCUGUGCUACACAUCGUAUGUACCGAAUCGGAAAAGGAAAAGGGAAAAGGAAAGUAUUAUGUUACGCCGUUCGGAUCUGCACUUC | -0.188

Study 3
Target: Centromere-binding protein 1, full length, His-tagged (CBF1, Saccharomyces cerevisiae, UniProt P17106, residues 1-351)
UniProt P17106, sequence (whole entry, looked up): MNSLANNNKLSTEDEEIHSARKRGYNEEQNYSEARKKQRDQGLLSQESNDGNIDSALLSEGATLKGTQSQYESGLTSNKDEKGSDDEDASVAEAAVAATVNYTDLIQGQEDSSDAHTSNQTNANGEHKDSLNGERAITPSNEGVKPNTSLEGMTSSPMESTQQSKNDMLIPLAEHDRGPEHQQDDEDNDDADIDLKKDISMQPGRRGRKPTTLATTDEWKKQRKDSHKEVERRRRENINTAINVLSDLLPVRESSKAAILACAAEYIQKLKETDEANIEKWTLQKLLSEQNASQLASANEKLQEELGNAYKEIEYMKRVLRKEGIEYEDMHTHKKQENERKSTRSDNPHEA
Technique: competition protein-binding microarray
Molecule type: double-stranded DNA, one strand shown
Matrix: in vitro
Concentration: 2 µM
Setting: whole 60-bp probe, lowest competitor level
Added: Pho4 competitor, 0.05 µM
Direction: higher = stronger binding
All sequences stand within: … GTCTTGATTCGCTTGACGCTGCTG
Sequence | fluorescence intensity [a.u.]
CGGGGTTAAGTTTGTTCGGTGGGTGGCTTGCAGCAG | 66.4
TGCGCAACAACTTGTGACGTGGGTGTATGTCTAGAA | 74.9
CGATCGTAGCTTGGTGTCGTGATGGGGTTATTTCGG | 186
CTAACGAAGGTTTGGGTTGTGGGTGACAAGCCAAGT | 60.2
GTCTTGTCTCATTGAGTGGTGGGTGTCCCCACTTCA | 57.4
GGCTATTATGCGATCATCGTGCAAAAATCGGTACTC | 101
GTTAAAAATTATCCTCAGGTGATGTTTTGGTAGAAG | 235
CGTCCTAGTGATTGTAAGGTGGGTGCCATGAGGAAG | 83.2
GTTCTGGGTATTTCGCATGTGGATGGGTTCAGTGTC | 86.5
GTTCGGTCCAGAGACTTCGTGATGGGCCTGAGGTGG | 85.4
ATGTTCCACAATACAAGCGTGACTCGAGACGTAAGG | 266
TTGAGCACTTGAGTATACGTGATGGAGCACACAAAG | 98.2
AAGAACCTGCAAGGGCATGTGCGGTTGTTGGAGCGA | 63.1
CAGAAAGAATAGCGCCTCGTGGAATCTTGGCACCCA | 81.2
CATACCCAACCTTTTCACGTGAACTAAGATATTTGT | 1050
GAGTTTGGAATCAAACTCGTGGCCGACCTATGGATC | 70.7
CTAACGAAGGTTTTTCACGTGGCATACAAGCCAAGT | 921
GAGGATGCTCTCGGCAGCGTGACTCGAATTGAGCCC | 365
GTCGTTAATAGAAGCCATGTGGAAAGATAAAGGGGC | 107

Study 4
Target: RNA binding protein fox-1 homolog 2, RRM domain, GST-SBP tag (RBFOX2, Homo sapiens, UniProt O43251-10, residues 100-194)
Technique: RNA Bind-n-Seq
Molecule type: RNA
Matrix: in vitro
Concentration: 365 nM
Setting: natural RNA segment, single round, ends assumed
Baseline: no-protein control
Direction: higher = stronger binding
All sequences stand within: GGGAGUUCUACAGUCCGACGAUC … UGGAAUUCUCGGGUGCCAA
Target sequence (chain): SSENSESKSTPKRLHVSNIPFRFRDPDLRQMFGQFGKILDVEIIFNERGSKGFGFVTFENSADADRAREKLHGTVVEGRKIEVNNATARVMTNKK
Sequence | RBNS enrichment (R)
UAUGGCCGAAAUUUGGGAGCAGAAGAGGUGAUGUCAUCCUGGAAAACUGGGUAGUUCAUCUGACCAUGGGAUGUGUUUGUUAUGAAGAAAAUCUGGAUGCCUGUGAUUCG | 1.55
CCGCCCCAGUGCUGAUGGAGAUGCCACUUUCGUGUGACUGCGAACAUUAAAGCACAAAAAAAUCCAACCUGGAGUUGUGUGAUUUUGAUACCAAAGUAAGUUCACUUUUC | 0.359
CUGGGAAAGCAGGUACCCCAGUGAAACUGGUCUGUGCUUGGUUUAACAGCUCCAACAAUUUCAGAUCCAUGGGGCUGCUUGACCAUAGACCCUGUUUACUCCAUGCCUGU | 0.384
CUGGCAGGCUGGCCUGGUGCUGCCCCCUUAGCCCAGAAGCCCUGCCAGGUCCAGUGGCCUGGGGUCCCACUGCUGAGGGCACCUGCCAGGCCUCACUCCACCCUGAAUGG | 0.31
UGGAGGAUCGCUUGAGCCAAUGAGUUGGAGGCUGCAGUGAGCUAUAAUCACGCCACUGCACUCCAGCCUGGGCUGCAGGGUGAGGUCCUGUCUCUGGAAAAAAAAAAAAA | 0.366
UAUGGGCUGCCAUCUCAGGCUGUCUUGAGGACCUGGGCUCCCUCUGCUACUCCCAGGAAAUGGGCUCCUGACACAGCAGUCUGCCACCACAGCCCCAGGAGGGUGUCAAC | 0.546
ACUGUUCAUAGAACAGGCCGAUUCUGAUUAGAUUUUAUCAGGGAAUCUGUUAAGAUAUGUUUGGUGACCAAAACGUAUGUGUGAAUAUAGUUCUAGCACUUUUAAAUUUU | 0.616
UGUGGACAUAAAUGUAUCUAAAUAAAACUUUCCCUAGCACUGUGGCUGACCUCACCCUUACUUUUAUACUUUAGUAUGAAACUGAUGAGAACUUUGGUAGUGAGUAUUUU | 0.55

Repeated from above (study 2):
Sequence | log2 enrichment
UCAAGUCCUGUGCUACACAUCGUAUGUACCGAAUCGGUUUGGUUUGGGUUUGGGGAAAGUAUUAUGUUACGCCGUUCGGAUCUGCACUUC | -0.237
CCUGUGCUACACAUCGUAUGUACCGAAUCGGGGAGGGGUUUUUUUGGGGAAAAAAAGGGGAAAGUAUUAUGUUACGCCGUUCGGAUCUGC | 0.364
GUCCUGUGCUACACAUCGUAUGUACCGAAUCGGUUUUUUGGUUUUUUGGUUUUUUGGGAAAGUAUUAUGUUACGCCGUUCGGAUCUGCAC | -0.226
CAAGUCCUGUGCUACACAUCGUAUGUACCGAAUCGGGAAAGGGUUUUUGGGUGGGAAAGUAUUAUGUUACGCCGUUCGGAUCUGCACUUC | 0.675
CCUCAAGUCCUGUGCUACACAUCGUAUGUACCGAAUCGGCCGGGCCGGCCGGAAAGUAUUAUGUUACGCCGUUCGGAUCUGCACUUCCAG | -0.489
CCUGUGCUACACAUCGUAUGUACCGAAUCGGGGUUUUUGGGGUUUUUUUGGGGUUUGGGGAAAGUAUUAUGUUACGCCGUUCGGAUCUGC | 0.797
GUCCUGUGCUACACAUCGUAUGUACCGAAUCGGGAGGGAAAAAAAGGGUUUUUUUGGGAAAGUAUUAUGUUACGCCGUUCGGAUCUGCAC | 0.219
GCAGGAAGUAAAAACAAAUGGAAAUGCUUCGGAUAGUGGCAGGGGUGGGGGUUGCUAAGGAAAGGGUGGGAUGGGUGUGGGUAAAGAGUU | 0.968
